# Measurements of several laboratories.
# Each numbered part is a random draw from the data of one study; scales do not carry over between parts. Changes are numbered by the printed parent chain.

# Block 1
# Target: Fragile X messenger ribonucleoprotein 1, C-terminal low-complexity region (Fmr1, Mus musculus, UniProt P35922)
# Technique: RNA Bind-n-Seq
# Molecule type: RNA
# Matrix: in vitro
# Concentration: 200 nM
# Notes: whole 134-nt RNA, ends assumed
# With: 150 mM LiCl
# Relative to: input library
# Direction: higher = stronger binding
# Each molecule: 7-deaza-guanosine replaces G
# Shared flanks, not repeated: GGGAGUUCUACAGUCCGACGAUC … UGGAAUUCUCGGGUGUCAAGG
Sequence,log2 enrichment
UCCACCCCUUCUUCCUCCCUUUAACUUAUCCAUUCACUUAAAACAUUACCUGGUCAUCUGGUAAGCCCGGGACAGUAAGCCGAGUGGCUG,1.21
UGUUUAUCCAACAUAUGAUUUUGCCUGCCCCAUAGUUGACAGCAUCGAAGGUGUUACACAUGCCCUGAGAACAACAGAAUACCAUGACAG,0.0825
ACCAUGCAGGUGGGCAUCUUUGGGAAGUGGGGCAAGGGGGGGAUAGGGAGGGGGGUAACACUUUGGGAACAGGUGGUCCCAGGUCGUUUG,1.53
CUCAAGUCCUGUGCUACACAUCGUAUGUACCGAAUCGGAAAAAGGUUUGGUGGAAAGUAUUAUGUUACGCCGUUCGGAUCUGCACUUCCA,-0.399
UAACUUUAGAGGAGGAUCUGAUGGAUAUGGCAGUGGACGUGGAUUUGGGGAUGGCUAUAAUGGGUAUGGAGGAGGACCUGGAGGCGGCAA,0.635
AGUCCUGUGCUACACAUCGUAUGUACCGAAUCGGGGAAAGGGGAAAAAGGGGUGGGGAAAGUAUUAUGUUACGCCGUUCGGAUCUGCACU,-0.042
CCUCAAGUCCUGUGCUACACAUCGUAUGUACCGAAUCGGGUGGGAGGGUGGGAAAGUAUUAUGUUACGCCGUUCGGAUCUGCACUUCCAG,-0.676
AGUCCUGUGCUACACAUCGUAUGUACCGAAUCGGGGAAAGGGGUUUGGGGUUUGGGGAAAGUAUUAUGUUACGCCGUUCGGAUCUGCACU,-1.27
AAAGCAAGAGAUGGCUAGUGCUUCAUCCAGCCAAAGAGGUAUGCUUGUUGCUUAAUUAAACCUUAAAGGUAACUUUGAGUUACUCCAGUA,-2.14
GUCCUGUGCUACACAUCGUAUGUACCGAAUCGGGGCCCCGGGGCCCCGGGGCCCCGGGGAAAGUAUUAUGUUACGCCGUUCGGAUCUGCA,-1.87
ACCAUGCAGGUGGGCAUCUUUGGGAAGUGGGGCAAGGGGGGGAUAGGGAGAGGGGUAACACUUUGGGAACAGGUGGUCCCAGGUCGUUUC,1.09

# Block 2
# Target: RNA binding protein fox-1 homolog 2, RRM domain, GST-SBP tag (RBFOX2, Homo sapiens, UniProt O43251-10, residues 100-194)
# Technique: RNA Bind-n-Seq
# Molecule type: RNA
# Matrix: in vitro
# Concentration: 365 nM
# Notes: natural RNA segment, single round, ends assumed
# Relative to: no-protein control
# Direction: higher = stronger binding
# Shared flanks, not repeated: GGGAGUUCUACAGUCCGACGAUC … UGGAAUUCUCGGGUGCCAA
# Target sequence (chain): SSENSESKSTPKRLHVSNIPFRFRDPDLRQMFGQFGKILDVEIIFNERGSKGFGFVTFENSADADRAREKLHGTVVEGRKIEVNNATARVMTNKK
Sequence,RBNS enrichment (R)
CUGAGAAACAGCAUGCAAAACAUUUGAACCAUUUUCUACAUCUCCCAUUGUUGCAUAGAGAGUGUGCACCGCUGCUAUCUUGCCAGAUCCACACUGGUCCUCCCGAAAGC,1.35
CCCCAACCCCUCGCCCUGCCAUCUUCCCCUCAAGCCUGCUAAGUUAUCCCAGGCCUGUGCGUGGUGGAAAAAGCCAGCCUUGGCCCUGCAGCCUCCACCUCGCCGCUGGG,0.994
UGAAUUUGGAAUUUAUUUCUUCCAUGUUUUGAUCAAUUCUCUGUAACUUUUCUUGGCUUAUAAGGUCCAAUUUCUGUGUCUGGAGGUAUAAAAAAAUUACACUGACUACU,0.367
UCUCCUCGGCUUCUUGCACUGAGCUGGCCUCACGUGUUGACUGAGGGAGCCCCUGAGCCCCAACCUUCCCCUGCCUCAGCCUUUGAUUGUCCAGGGUGAAGCUGUGGGAG,0.807
AACAAAAACUUUUUAAUAGUCAAACUGAAUUACCUUGUUUUAUAAAUGUUAAAUUGUUUAUAUUUAAGUAAUUAGCUUAAAAAUAUAGUUUUAUGUUUUGUACAUUAAUU,0.694
UCCUGUUAACCAAAUGGUUACUGCACUACCAGGGUUACUGGUUUAUUUUCCAGGGAGCUGAUAAAGCAGGAGAACUGUUGCUGCAUGUUUUCUAUUUGGACUCCGUCACA,1.71
GGAUACAAGAUUAAUCUUUAGAAAUUUUGAAUUUUCUACUUGAGAUAUAAAAAUUCAGUAAAAUGUAAUCUGUUUUUAAUCUAUACUGAGAUAGAUAGAUGGCAGAUAGA,0.791
GUUUGAGUUUUACGCAGUAUAUUUUUUCCACAAAACCUGUAAAGAUUUAAGUUAUUUUAAUUUAUUGUGAAUCCGAAAACUAGAUUUAGUUGGUCAGAAUCUGUAAAGUA,0.449
UGCUCUCCAUUGACCUGGACAAAGUAGUGUUACCCAACUUUCGAUCCAAUCGCCCUCAAGUGAGACCUUUGUCCCCUGGAGAGAGUGGUGCCUGGGACAUUCCUGGAGGG,0.342
UGAUGCCUGGUGGUCUUACAGCAUCACUGGCACACUAACGUCGGACUGUGUGAUUGAGCCCAAGAAGCCAGAGACUAUGCAUUUGGCCGCUGCCAAGGGGGGGAUUGCUC,0.445
GUGGCUCACAACCAUCUGUAAUGGGAUCUGAUGCCCUCUUCUAGUGUGUCUGAAGACAGUGACAGUGUACUCAUAUACAUAAAGAAAUCUUUUUUUAAAAAAGAGAGAAA,0.334
CUUCAUAUCCACCAAGCAGACAUAACCUAAGGAAUGUUAGUCCACUGAGCAGUUAAAAAACACUGACAUAUUGCUUCCCUCAUGAAGUAAACGAUACAGGGAACUGGUUG,0.448

# Block 3
# Target: Interferon regulatory factor 7, full length, phosphomimetic (IRF7, Homo sapiens, UniProt Q92985, residues 1-503, S101K/S471D/S472D/S475D/S476D/S477D/S483D/S484D/S487D)
# Sequence of UniProt Q92985 (whole entry, unmodified, looked up): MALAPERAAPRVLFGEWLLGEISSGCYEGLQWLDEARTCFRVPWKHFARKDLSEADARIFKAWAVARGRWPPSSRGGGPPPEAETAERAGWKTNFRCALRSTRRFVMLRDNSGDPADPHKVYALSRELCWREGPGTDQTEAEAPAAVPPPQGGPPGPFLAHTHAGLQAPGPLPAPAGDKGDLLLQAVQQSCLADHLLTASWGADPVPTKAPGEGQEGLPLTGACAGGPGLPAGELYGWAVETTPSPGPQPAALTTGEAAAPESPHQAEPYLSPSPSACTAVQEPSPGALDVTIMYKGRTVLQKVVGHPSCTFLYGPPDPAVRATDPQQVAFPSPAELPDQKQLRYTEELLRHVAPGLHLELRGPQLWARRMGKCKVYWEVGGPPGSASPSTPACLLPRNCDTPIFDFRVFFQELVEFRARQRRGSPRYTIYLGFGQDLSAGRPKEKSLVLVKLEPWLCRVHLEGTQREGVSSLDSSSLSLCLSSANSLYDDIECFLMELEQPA
# Technique: protein-binding microarray
# Molecule type: double-stranded DNA, one strand shown
# Matrix: in vitro
# Concentration: 250 nM
# Notes: 60-bp whole probe
# With: salmon DNA 0.4 mg/ml
# Relative to: random background probes
# Direction: higher = stronger binding
# Shared flanks, not repeated: GCCTAGCAC … GTCTTGATTCGCTTGACGCTGCTG
Sequence,log fluorescence
TCACTTTTAATTTTTAAACTGTGCTAG,0.694 z-score
CACGGTATCGGGACTGGGGACGTGCTA,0.1 z-score
TGAGGACTGGACTTTCGGTTAGTGCTA,0.218 z-score
ATATACCTGTATATCTTCAGGTGCTAG,0.811 z-score
ACGTAGAAGGAAGAAGCACGGTGCTAG,-0.424 z-score
GGGCACGTTGTTTAACTTCTGTGCTAG,-0.478 z-score
TTAGATTTCCGGACTGGATTAGTGCTA,0.188 z-score
TTAGGTCTCGAACTGGGTTAGTGCTAG,0.474 z-score
GACGGACTGCTTATCCTGAGGTGCTAG,-0.648 z-score
CACGATATCGGGTTTCGAGACGTGCTA,3.19 z-score
GACGGGTTCCTTTCCCTGACGTGCTAG,1.24 z-score
GTAGGACTGGGGTATCGGTTAGTGCTA,-0.0669 z-score
TTAGTTATCGGGACTGGGTTAGTGCTA,0.281 z-score
CTGTTTTTCTCACCACATTTTGTGCTA,2.28 z-score
TCAACACTCACCATGGCACTGTGCTAG,-0.354 z-score
GACGGTATCCTCATCCTGACGTGCTAG,0.0547 z-score
TTAGGTATCGGAACTGGGTTAGTGCTA,0.39 z-score
TTAGGTATCCTACTTCTTTAGTGCTAG,0.257 z-score
GTCAGGGGTCTTGCTCTGTAGTGCTAG,-0.834 z-score
TCAGTTACCCATCTCAAACTGTGCTAG,0.745 z-score
TTTGGTATCGGTTTCGGTTAGTGCTAG,10.9 z-score
TTAGATTTCAGCCTGGATTAGTGCTAG,0.017 z-score
GACGGACTGCTTATCCTGCCGTGCTAG,-0.516 z-score
TTAAGTTTCCTTATCCTTTAGTGCTAG,3.55 z-score
GTCGGACTGGGTATCGGGACGTGCTAG,-0.102 z-score

# Block 4
# Target: CCNB1, cyclin fold, Cln2 fusion (human)
# Technique: yeast growth competition, sequencing
# Matrix: yeast
# Notes: weak parent motif
# Relative to: not given
# Direction: higher = stronger binding
# Starting sequence: SLBP docking peptide (human); ARYKRKLLINDFG
Substitution,normalised enrichment score
ARYKLKLLINDFG [R5L],0.883
ARGKRKLLINDFG [Y3G],0.572
ARYKRLLLINDFG [K6L],1.02
ADYKRKLLINDFG [R2D],0.797
ARYKRKLLINDDG [F12D],0.673
FRYKRKLLINDFG [A1F],0.17
ARYKRKLLIYDFG [N10Y],0.356
ARVKRKLLINDFG [Y3V],0.903
ARYKRKLLIPDFG [N10P],0.915
AHYKRKLLINDFG [R2H],0.438
ARYKRKLLINDWG [F12W],0.171
IRYKRKLLINDFG [A1I],-0.173
ARYKRKLQINDFG [L8Q],0.651
ARYSRKLLINDFG [K4S],0.0953
ARYKRKLLGNDFG [I9G],0.849
YRYKRKLLINDFG [A1Y],0.551
ARIKRKLLINDFG [Y3I],0.0748

# Block 5
# Target: ABI1, truncated, D143A, DHFR fusion (Arabidopsis thaliana)
# Technique: DHFR PCA, deep sequencing
# Matrix: yeast
# Notes: methotrexate growth selection, single substitutions
# With: (+)-ABA 0.032 µM
# Relative to: wild-type fitted maximum
# Direction: higher = stronger binding
# Starting sequence: PYL1, truncated, DHFR fusion (Arabidopsis thaliana); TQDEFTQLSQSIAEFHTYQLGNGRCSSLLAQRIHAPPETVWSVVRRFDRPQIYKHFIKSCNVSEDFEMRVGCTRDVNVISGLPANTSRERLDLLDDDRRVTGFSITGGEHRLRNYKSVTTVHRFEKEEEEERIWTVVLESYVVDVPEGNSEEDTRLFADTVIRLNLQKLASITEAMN; partner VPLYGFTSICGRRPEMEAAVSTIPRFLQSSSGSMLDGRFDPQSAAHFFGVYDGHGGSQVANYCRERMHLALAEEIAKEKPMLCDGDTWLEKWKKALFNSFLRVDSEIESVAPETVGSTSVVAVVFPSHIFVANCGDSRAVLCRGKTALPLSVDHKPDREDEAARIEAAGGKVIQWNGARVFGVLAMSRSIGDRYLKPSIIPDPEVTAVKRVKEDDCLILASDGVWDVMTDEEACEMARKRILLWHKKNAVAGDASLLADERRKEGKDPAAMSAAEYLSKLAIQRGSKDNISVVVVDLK
Substitution,relative binding score [%]
T39D,5.5
R99M,92.8
R98H,5.07
I33P,5.87
S26I,-9.47
R98E,1.43
R24I,4.33
K116P,-4.97
R113M,25.3
R90C,-16.3
G108E,0.196
A170E,-3.4
Y53R,-0.188
R155V,4.44
E127D,38.4

# Further values, each from its own experiment
Substance,target,test,test system,conditions,how to read,endpoint,value
"PhoQ, residues 284 288 289 292 302 303 TAVSDG","PhoP, residues 12 14 15 18 19 LHSVQ (Escherichia coli, UniProt P23836)","Sort-seq, item: YFP reporter",E. coli,"PhoQ-PhoP variant library, with: 10 µM Mg2+","relative to: high Mg2+ state, higher = stronger signaling",fold induction,2.97
